# Results collected from several papers.
# Every numbered part comes from another study and shows a few of its results, in no order. Substitutions count along the parent as printed.
# Sequence of UniProt Q9H2K8 (whole entry, looked up): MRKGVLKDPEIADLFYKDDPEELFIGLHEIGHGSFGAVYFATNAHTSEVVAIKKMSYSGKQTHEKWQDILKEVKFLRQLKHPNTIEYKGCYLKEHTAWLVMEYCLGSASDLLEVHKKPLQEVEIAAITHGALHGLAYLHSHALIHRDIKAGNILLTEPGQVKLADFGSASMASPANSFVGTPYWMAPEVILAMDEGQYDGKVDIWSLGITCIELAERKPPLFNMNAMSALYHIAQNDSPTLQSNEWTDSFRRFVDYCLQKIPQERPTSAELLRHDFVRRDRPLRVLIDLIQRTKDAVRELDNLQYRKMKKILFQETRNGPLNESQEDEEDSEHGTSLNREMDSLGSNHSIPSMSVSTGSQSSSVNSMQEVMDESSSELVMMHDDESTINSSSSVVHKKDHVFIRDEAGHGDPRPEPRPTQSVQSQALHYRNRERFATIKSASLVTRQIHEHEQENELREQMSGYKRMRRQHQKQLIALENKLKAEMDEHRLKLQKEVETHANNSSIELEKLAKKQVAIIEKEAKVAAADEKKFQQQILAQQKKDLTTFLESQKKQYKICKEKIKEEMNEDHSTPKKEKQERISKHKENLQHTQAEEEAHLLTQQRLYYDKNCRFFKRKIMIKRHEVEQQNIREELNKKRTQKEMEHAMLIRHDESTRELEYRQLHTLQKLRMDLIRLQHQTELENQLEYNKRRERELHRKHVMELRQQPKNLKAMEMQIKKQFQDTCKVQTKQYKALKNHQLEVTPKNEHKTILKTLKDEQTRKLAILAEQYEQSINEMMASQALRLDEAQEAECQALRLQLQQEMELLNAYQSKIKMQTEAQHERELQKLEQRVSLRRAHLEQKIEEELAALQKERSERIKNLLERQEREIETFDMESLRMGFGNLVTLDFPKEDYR
# Sequence of UniProt Q16539 (whole entry, looked up): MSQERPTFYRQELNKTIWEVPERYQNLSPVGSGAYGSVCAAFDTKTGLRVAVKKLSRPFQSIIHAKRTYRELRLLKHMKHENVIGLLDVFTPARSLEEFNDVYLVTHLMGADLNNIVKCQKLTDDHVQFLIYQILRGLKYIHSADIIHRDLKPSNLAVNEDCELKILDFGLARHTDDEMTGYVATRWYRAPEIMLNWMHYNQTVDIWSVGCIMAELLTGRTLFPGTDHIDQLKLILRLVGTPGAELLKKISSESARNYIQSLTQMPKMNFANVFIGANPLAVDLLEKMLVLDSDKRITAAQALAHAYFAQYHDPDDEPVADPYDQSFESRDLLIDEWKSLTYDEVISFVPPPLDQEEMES
# Sequence of UniProt Q16832 (whole entry, looked up): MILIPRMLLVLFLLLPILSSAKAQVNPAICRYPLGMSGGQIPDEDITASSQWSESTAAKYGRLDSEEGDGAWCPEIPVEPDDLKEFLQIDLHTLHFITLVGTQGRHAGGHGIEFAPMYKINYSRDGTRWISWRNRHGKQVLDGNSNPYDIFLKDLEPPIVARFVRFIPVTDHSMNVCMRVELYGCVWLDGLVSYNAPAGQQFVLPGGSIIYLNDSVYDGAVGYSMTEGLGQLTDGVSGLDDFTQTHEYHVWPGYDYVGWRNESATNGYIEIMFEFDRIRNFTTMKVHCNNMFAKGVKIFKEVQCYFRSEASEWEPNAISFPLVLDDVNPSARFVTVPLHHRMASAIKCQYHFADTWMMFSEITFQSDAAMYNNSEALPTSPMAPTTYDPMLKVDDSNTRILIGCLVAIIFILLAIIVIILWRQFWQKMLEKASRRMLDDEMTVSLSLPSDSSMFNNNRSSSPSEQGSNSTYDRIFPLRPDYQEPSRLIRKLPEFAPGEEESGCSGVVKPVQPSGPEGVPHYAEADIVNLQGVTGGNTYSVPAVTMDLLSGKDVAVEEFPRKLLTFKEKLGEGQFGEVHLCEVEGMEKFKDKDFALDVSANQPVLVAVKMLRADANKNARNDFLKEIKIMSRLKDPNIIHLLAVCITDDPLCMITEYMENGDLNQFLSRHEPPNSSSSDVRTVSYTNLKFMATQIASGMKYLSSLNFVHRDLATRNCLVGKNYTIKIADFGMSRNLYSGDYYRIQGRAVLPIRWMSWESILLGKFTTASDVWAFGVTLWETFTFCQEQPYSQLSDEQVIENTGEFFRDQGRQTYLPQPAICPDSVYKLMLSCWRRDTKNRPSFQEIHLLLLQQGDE
# Sequence of UniProt P30291 (whole entry, looked up): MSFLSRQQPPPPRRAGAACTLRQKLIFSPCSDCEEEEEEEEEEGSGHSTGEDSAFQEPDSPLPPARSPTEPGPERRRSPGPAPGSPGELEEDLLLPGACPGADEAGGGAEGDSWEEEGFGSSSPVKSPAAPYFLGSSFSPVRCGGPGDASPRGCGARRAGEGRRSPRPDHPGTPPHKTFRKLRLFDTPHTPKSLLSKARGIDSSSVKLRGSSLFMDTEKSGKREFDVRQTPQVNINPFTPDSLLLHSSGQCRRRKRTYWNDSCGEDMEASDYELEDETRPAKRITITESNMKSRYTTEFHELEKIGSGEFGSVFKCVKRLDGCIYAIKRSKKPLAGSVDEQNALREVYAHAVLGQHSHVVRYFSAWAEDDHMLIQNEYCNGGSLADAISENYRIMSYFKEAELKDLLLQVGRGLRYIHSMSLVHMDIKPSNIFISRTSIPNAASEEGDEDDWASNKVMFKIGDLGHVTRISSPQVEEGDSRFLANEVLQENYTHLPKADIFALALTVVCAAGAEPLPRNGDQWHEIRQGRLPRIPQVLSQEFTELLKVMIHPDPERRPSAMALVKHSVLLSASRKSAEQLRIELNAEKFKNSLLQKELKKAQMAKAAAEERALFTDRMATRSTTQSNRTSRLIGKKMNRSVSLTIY
# Sequence of UniProt Q9Y5S2 (whole entry, looked up): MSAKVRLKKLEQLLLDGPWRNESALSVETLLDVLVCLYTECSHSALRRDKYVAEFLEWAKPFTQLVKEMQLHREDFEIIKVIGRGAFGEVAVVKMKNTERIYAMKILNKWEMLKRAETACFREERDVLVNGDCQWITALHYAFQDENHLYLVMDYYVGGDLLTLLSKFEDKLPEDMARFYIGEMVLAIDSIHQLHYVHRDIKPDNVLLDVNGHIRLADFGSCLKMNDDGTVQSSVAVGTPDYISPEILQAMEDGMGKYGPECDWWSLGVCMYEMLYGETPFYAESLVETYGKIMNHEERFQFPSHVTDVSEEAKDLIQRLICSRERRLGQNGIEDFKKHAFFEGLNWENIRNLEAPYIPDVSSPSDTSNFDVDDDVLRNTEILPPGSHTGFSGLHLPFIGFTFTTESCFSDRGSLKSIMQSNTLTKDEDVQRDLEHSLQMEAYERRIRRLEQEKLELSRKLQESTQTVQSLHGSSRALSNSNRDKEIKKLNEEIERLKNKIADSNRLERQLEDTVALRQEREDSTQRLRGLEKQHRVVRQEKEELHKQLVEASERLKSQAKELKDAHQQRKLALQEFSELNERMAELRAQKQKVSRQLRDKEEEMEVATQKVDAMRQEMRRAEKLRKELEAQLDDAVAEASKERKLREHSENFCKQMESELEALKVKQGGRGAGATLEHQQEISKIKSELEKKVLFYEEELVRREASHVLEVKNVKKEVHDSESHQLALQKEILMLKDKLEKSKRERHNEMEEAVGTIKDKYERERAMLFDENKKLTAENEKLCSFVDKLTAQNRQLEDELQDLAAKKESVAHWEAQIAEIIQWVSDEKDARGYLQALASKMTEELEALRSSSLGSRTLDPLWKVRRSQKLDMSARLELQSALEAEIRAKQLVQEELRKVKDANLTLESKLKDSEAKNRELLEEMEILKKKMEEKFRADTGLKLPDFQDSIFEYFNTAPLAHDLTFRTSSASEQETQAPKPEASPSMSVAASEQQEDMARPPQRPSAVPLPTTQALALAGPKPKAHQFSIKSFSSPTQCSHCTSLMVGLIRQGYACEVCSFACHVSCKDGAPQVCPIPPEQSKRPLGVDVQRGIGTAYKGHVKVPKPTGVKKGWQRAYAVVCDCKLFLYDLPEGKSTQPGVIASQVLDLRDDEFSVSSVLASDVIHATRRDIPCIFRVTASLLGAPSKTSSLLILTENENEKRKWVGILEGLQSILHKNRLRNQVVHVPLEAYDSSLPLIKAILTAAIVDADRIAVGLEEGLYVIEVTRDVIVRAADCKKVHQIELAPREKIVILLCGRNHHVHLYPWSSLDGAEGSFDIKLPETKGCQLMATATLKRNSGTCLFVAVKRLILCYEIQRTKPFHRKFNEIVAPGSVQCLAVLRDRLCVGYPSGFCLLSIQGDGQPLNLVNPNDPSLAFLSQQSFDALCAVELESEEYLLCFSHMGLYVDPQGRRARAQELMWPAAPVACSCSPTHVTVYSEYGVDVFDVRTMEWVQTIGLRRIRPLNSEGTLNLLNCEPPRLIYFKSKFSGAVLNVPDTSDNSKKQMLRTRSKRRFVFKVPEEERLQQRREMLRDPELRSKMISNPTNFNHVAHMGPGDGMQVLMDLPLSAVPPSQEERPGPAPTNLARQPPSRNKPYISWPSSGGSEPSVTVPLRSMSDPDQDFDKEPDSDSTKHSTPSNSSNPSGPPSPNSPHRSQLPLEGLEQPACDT
# Sequence of UniProt P31751 (whole entry, looked up): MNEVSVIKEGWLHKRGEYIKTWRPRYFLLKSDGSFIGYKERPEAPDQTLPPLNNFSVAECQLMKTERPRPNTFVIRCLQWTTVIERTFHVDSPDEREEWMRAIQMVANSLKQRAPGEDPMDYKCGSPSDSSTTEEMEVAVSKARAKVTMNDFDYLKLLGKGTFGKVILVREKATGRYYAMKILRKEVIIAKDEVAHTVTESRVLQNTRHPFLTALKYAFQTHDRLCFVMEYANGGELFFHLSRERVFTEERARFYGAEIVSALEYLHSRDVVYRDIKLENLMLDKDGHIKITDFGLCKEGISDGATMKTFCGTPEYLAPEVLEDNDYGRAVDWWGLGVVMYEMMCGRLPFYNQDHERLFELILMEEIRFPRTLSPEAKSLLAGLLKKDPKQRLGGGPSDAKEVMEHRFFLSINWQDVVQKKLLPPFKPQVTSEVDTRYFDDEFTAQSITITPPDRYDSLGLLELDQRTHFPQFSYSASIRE

# Series 1
# Target: CCNE1, cyclin fold, Cln2 fusion (human)
# Technique: yeast growth competition, sequencing
# Sample: yeast
# Notes: weak parent motif
# Baseline: not given
# Direction: higher = stronger binding
# Parent: SLBP docking peptide (human); ARYKRKLLINDFG
Substitution,normalised enrichment score
K4G,0.165
Y3P,0.173
L7C,0.107
F12R,0.668
K4V,0.746
R5H,0.209
L7I,-0.263
R5C,0.806

# Series 2
# Compound: COc1cc2ncnc(Nc3cccc(Cl)c3)c2cc1OC
# Read-out: enzyme activity
# Mode: inhibitor
# Concentration: 0.5 µM
# Baseline: control
target,remaining activity
"MAPK14 (Homo sapiens, UniProt Q16539)",107%
"RPS6KA4 (Homo sapiens, UniProt O75676)",94.5%
"DDR2 (Homo sapiens, UniProt Q16832)",99.2%
"PRKG2 (Homo sapiens, UniProt Q13237)",92.2%
"TLK2 (Homo sapiens, UniProt Q86UE8)",93.9%

# Series 3
# Compound: CN(C)C(=O)Cn1cc(-c2nc([C@@](C)(c3ccc(-c4cnc(N)nc4)cc3)C3CC3)no2)cn1
# Concentration: 1 µM
target,assay,remaining binding [%]
"LIM domain kinase 2 (LIMK2, Homo sapiens, UniProt P53671)","cell-free assay, competition with immobilised ligand",85
"PRKD3 (Homo sapiens, UniProt O94806)","cell-free assay, competition with immobilised ligand",100
"TTK (Homo sapiens, UniProt P33981)","cell-free assay, competition with immobilised ligand",100
"WEE1 (Homo sapiens, UniProt P30291)","cell-free assay, competition with immobilised ligand",94
"CHUK (Homo sapiens, UniProt O15111)","cell-free assay, competition with immobilised ligand",0
"BMPR2 (Homo sapiens, UniProt Q13873)","cell-free assay, competition with immobilised ligand",94
"CDC42BPB (Homo sapiens, UniProt Q9Y5S2)","cell-free assay, competition with immobilised ligand",99
"AKT2 (Homo sapiens, UniProt P31751)","cell-free assay, competition with immobilised ligand",84
"AAK1 (Homo sapiens, UniProt Q2M2I8)",binding,100
"EPHA8 (Homo sapiens, UniProt P29322)","cell-free assay, competition with immobilised ligand",100
"TAOK3 (Homo sapiens, UniProt Q9H2K8)","cell-free assay, competition with immobilised ligand",89
"MARK4 (Homo sapiens, UniProt Q96L34)","cell-free assay, competition with immobilised ligand",95
"FLT3 (Homo sapiens, UniProt P36888, D835V/ITD)","cell-free assay, competition with immobilised ligand",62

# Series 4
# Target: CEBPE, bZIP domain (human)
# Technique: DHFR protein complementation
# Sample: yeast
# Notes: single substitutions, most at no-binding floor
# Baseline: wild-type JUN-FOS pair
# Direction: higher = stronger binding
# Parent: JUN, bZIP domain (human); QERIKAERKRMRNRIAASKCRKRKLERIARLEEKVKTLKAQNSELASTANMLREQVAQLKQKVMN; partner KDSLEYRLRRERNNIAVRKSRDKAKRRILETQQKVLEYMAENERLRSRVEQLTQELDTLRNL
Substitution,binding fitness [natural log]
L38W,-1.53
K39G,-1.34
M51P,-1.49
E54P,-1.49
Q41G,-1.43
R53H,-1.16
A49G,-1.48
A29Y,-1.22

# Repeated from above (series 2):
target,remaining activity
"PRKG2 (Homo sapiens, UniProt Q13237)",92.2%
"RPS6KA4 (Homo sapiens, UniProt O75676)",94.5%
"TLK2 (Homo sapiens, UniProt Q86UE8)",93.9%
"MAPK14 (Homo sapiens, UniProt Q16539)",107%
